Experimental data gathered from unrelated publications.
Cell line: MDA-MB-231

Structure (SMILES) | test | conditions | scale | measurement | value
CCC(=O)CCC[C@H](C)C[C@H](NC(=O)[C@@H]1C[C@H](C)CN1C(=O)/C=C/[C@@H](C)CC)C(=O)N[C@H](C(=O)NC(C)(C)C(=O)N[C@@H](CC(C)C)C(=O)N[C@@H](CC(C)C)C(=O)NC(C)(C)C(=O)NC(C)(C)C(=O)NCCC(=O)N[C@@H](C)CNC)[C@H](O)C(C)C | cell growth or viability, SRB | 48 h |  | GI50 | > 100 nM
Cc1cccc(O)c1C(=O)OCC1(O)C(Nc2ccc3c(c2)Cc2ccccc2-3)C(N)C(NC(=O)N(C)C)(C(C)O)C1(C)O (centres unmarked) | cell growth or viability |  |  | EC50 | 376 nM
CC/C=C\C/C=C\C/C=C\C/C=C\C/C=C\C/C=C\CCC(=O)Nc1ccn(C2OC(CO)C(O)C2(F)F)c(=O)n1 (centres unmarked) | NCI-60 screen |  |  | CC50 | 53500 nM
CCC(=O)C[C@@H](O)C[C@@H](C)C[C@H](NC(=O)[C@@H]1C[C@H](C)CN1C(=O)/C=C/[C@@H](C)CC)C(=O)N[C@H](C(=O)NC(C)(C)C(=O)N[C@@H](CC(C)C)C(=O)N[C@@H](CC(C)C)C(=O)NC(C)(C)C(=O)NC(C)(C)C(=O)NCCC(=O)N[C@@H](C)CNC)[C@H](O)C(C)C | cell growth or viability, SRB | 48 h |  | GI50 | > 100 nM
N=C(N)NCCC[C@H](NC(=O)[C@H](CCCNC(=N)N)NC(=O)[C@@H]1CCCN1C(=O)[C@H](CCCNC(=N)N)NC(=O)[C@H](CCCNC(=N)N)NC(=O)[C@H](CCCNC(=N)N)NC(=O)[C@H](Cc1c[nH]c2ccccc12)NC(=O)[C@H](CCCNC(=N)N)NC(=O)[C@H](CCCNC(=N)N)NC(=O)[C@H](CCCNC(=N)N)NC(=O)[C@H](CCCNC(=N)N)NC(=O)[C@H](CCCNC(=N)N)NC(=O)[C@H](Cc1c[nH]c2ccccc12)NC(=O)[C@H](CCCNC(=N)N)NC(=O)[C@H](CCCNC(=N)N)NC(=O)[C@H](Cc1ccc(O)cc1)NC(=O)[C@H](CCCNC(=N)N)NC(=O)[C@H](CCCNC(=N)N)NC(=O)[C@H](CCCNC(=N)N)NC(=O)[C@@H](N)Cc1c[nH]c2ccccc12)C(N)=O | AFM | IC50, 24 h | reference: untreated | cell height and roughness | no effect
CC(=O)NC1C(OC2OC(CC(O)C3OC(n4ccc(=O)[nH]c4=O)C(O)C3O)C(O)C(O)C2NC(=O)COCc2ccc(N3CCC(Oc4ccc(OC(F)(F)F)cc4)CC3)cc2)OC(CO)C(O)C1O (centres unmarked) | Boyden chamber | 0.2 µM | reference: untreated | migrated cells | < 50%
C[C@H](N)[C@@H](CCCCCCCCCCCCCCC(=O)CCCCCCC[C@@H](O)[C@@H](C)N)O[C@@H]1O[C@H](CO)[C@H](O)[C@H](O)[C@H]1O |  |  | reference: IC50 MCF-12A over IC50 MDA-MB-231 | selectivity ratio | 3.7
CCCC[C@H](O)C[C@@H](C)C[C@H](NC(=O)[C@@H]1C[C@H](C)CN1C(=O)/C=C/[C@@H](C)CC)C(=O)N[C@H](C(=O)NC(C)(C)C(=O)N[C@@H](CC(C)C)C(=O)N[C@@H](CC(C)C)C(=O)NC(C)(C)C(=O)NC(C)(C)C(=O)NCCC(=O)N[C@@H](C)CN(C)C)[C@H](O)C(C)C | cell growth or viability, SRB | 48 h |  | GI50 | > 100 nM
NC1CCCCC1N.O=C1[O][Pt]([O]C(=O)c2ccc(P(c3ccccc3)c3ccccc3)cc2)([O]C(=O)c2ccc(P(c3ccccc3)c3ccccc3)cc2)[O]C1=O.[Cl][Au].[Cl][Au] | annexin V/PI flow cytometry | concentration not given, 24 h |  | apoptotic cells | 21.9%
C[C@@H](N)[C@H](O)CCCCCCCC(=O)CCCCCCCCCCCCCC[C@@H](O[C@@H]1O[C@H](CO)[C@@H](O)[C@H](O)[C@H]1O)[C@@H](N)CO |  |  | reference: IC50 MCF-12A over IC50 MDA-MB-231 | selectivity ratio | 10.1
O=C1[O][Pt]2([OH])([OH])([NH]C3CCCCC3[NH]2)[O]C1=O (centres unmarked) | wound-healing | IC20, 24 h |  | migration inhibition | ~27%
C#CCOCC1=C(C(=O)OCC)C(c2cccc(Cl)c2)N2C=CSC2=N1 (centres unmarked) | MTT | 100 µM, 48 h |  | viability | 62%
CN[C@@H](C)C(=O)N[C@H]1CN(C(=O)Cc2ccccc2)CC[C@H]2CC[C@@H](C(=O)NCc3ccc(Br)cc3)N2C1=O | TNFα-dependent cell killing, trypan blue | 1 µM, 48 h, together with: TNFα-blocking antibody 2 µg/mL |  | cell death | inhibited
COC(=O)C1CCCN1C(=O)C(Cc1ccccc1)N(C)C(=O)CC(O)C(CC(C)C)NC(=O)C(CC(C)C)N(C)C(=O)C(CC(C)C)NC(=O)C(O)C(C)C (centres unmarked) | RNA-seq pathway analysis, item: NOD1/2 signalling pathway | 40 µM, 12 h | direction not given | pathway activation z-score | 2
O=C(O)c1ccc([PH]([Au][Cl])(c2ccccc2)c2ccccc2)cc1 | wound-healing | IC20, 24 h |  | migration inhibition | 40%
CCN(CC)C1=[S+][Au-]2([S]1)[c]1ccccc1-c1cccc[c]12 | ICP-MS | 10 µM, 18 h |  | mitochondrial gold accumulation | 9 nmol/20 million cells
CC(C)[C@@H]1NC(=O)[C@H](Cc2ccccc2)NC(=O)[C@H](Cc2ccc(O)cc2)NC(=O)CCSSC[C@@H](C(=O)N2CCC[C@H]2C(=O)N[C@H](CCCNC(=N)N)C(=O)NCC(N)=O)NC(=O)[C@H](CCC(N)=O)NC1=O | colony formation, clonogenic | 1500 nM, 7 days |  | inhibition | 75%

A few entries again:
Structure (SMILES) | test | conditions | scale | measurement | value
C#CCOCC1=C(C(=O)OCC)C(c2cccc(Cl)c2)N2C=CSC2=N1 (centres unmarked) | MTT | 100 µM, 48 h |  | viability | 62%
CN[C@@H](C)C(=O)N[C@H]1CN(C(=O)Cc2ccccc2)CC[C@H]2CC[C@@H](C(=O)NCc3ccc(Br)cc3)N2C1=O | TNFα-dependent cell killing, trypan blue | 1 µM, 48 h, together with: TNFα-blocking antibody 2 µg/mL |  | cell death | inhibited
